Published values collected from several papers.
Numbered parts are unrelated; each lists some results of a single study.
Chain of UniProt Q92918 (whole entry, looked up): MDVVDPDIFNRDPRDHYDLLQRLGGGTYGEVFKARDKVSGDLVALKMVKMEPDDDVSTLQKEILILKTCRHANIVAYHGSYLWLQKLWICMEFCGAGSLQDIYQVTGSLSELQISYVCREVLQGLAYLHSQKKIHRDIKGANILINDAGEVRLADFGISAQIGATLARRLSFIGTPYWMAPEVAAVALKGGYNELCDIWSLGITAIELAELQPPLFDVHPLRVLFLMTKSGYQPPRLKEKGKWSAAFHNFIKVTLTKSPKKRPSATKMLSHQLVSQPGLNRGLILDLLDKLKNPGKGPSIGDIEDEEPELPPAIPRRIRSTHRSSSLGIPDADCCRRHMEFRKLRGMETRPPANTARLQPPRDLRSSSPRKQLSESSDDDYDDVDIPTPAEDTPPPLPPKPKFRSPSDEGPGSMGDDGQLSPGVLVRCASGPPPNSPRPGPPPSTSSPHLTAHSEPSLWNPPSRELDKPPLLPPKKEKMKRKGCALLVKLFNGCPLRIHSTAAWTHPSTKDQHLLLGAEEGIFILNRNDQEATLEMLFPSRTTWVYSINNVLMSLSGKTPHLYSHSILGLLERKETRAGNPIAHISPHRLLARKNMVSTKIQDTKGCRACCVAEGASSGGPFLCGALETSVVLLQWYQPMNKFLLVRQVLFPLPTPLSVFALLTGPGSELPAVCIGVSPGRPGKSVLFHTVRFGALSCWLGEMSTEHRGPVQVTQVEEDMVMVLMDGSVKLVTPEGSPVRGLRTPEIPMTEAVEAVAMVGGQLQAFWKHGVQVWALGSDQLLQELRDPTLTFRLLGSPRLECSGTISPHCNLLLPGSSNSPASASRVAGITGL
Chain of UniProt P36894 (whole entry, looked up): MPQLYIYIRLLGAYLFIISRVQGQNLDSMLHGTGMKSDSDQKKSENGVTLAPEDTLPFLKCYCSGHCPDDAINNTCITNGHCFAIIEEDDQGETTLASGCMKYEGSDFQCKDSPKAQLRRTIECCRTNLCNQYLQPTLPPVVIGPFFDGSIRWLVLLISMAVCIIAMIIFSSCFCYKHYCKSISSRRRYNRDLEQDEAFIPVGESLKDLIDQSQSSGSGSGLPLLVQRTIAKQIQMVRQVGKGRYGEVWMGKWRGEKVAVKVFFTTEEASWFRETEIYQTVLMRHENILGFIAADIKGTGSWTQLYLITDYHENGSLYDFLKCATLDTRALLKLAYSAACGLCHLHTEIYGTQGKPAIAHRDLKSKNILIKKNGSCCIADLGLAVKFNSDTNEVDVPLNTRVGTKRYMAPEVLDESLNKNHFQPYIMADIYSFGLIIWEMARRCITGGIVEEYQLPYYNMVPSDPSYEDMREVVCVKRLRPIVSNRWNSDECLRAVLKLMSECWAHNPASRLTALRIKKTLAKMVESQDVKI
Chain of UniProt Q9HCP0 (whole entry, looked up): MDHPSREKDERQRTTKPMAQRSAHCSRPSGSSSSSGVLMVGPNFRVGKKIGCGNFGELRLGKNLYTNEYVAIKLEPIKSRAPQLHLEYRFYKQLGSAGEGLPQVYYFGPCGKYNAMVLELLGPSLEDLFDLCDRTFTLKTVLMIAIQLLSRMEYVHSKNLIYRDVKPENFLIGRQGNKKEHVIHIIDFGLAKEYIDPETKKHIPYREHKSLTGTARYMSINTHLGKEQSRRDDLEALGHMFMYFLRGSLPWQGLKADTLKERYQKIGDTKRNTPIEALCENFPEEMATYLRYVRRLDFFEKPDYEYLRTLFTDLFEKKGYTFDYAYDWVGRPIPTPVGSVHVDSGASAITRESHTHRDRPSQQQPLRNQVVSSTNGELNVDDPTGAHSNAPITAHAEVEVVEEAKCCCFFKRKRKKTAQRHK
Chain of UniProt Q9Y6E0 (whole entry, looked up): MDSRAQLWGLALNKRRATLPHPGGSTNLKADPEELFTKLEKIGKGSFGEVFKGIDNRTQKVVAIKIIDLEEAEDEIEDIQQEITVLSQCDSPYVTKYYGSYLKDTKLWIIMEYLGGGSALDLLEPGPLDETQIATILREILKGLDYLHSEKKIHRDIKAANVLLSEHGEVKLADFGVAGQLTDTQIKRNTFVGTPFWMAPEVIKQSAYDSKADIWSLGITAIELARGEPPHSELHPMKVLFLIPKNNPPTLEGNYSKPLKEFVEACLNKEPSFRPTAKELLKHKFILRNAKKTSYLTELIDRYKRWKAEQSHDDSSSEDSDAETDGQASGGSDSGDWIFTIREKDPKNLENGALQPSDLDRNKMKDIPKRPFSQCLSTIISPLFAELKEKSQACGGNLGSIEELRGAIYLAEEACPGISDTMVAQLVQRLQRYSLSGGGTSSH
Chain of UniProt Q6P2M8 (whole entry, looked up): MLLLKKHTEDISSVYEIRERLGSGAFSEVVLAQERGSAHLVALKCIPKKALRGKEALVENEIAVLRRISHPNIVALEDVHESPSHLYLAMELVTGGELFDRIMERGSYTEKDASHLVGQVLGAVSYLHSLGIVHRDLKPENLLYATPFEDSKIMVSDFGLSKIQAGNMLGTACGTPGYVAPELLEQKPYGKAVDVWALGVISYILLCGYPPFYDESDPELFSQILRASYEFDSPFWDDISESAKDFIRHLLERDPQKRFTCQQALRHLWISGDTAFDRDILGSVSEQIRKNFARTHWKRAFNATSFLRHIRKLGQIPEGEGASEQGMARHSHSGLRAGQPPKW
Chain of UniProt P53667 (whole entry, looked up): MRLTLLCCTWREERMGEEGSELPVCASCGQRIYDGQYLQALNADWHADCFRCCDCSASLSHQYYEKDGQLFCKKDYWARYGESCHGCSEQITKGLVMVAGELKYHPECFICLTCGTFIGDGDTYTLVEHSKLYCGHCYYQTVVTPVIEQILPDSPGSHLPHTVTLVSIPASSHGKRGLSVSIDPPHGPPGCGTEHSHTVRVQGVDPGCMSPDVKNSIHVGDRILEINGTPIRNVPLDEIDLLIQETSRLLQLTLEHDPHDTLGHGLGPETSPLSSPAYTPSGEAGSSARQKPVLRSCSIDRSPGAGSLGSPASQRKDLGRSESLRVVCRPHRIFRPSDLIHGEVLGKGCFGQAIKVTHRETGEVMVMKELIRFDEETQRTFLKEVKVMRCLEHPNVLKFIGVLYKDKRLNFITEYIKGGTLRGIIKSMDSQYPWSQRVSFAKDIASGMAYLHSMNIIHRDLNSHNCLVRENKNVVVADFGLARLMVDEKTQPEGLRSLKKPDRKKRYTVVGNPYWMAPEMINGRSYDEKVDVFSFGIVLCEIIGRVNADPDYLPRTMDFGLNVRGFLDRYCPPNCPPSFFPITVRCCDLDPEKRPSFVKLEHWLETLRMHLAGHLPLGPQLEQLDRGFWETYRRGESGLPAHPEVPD
Chain of UniProt O94768 (whole entry, looked up): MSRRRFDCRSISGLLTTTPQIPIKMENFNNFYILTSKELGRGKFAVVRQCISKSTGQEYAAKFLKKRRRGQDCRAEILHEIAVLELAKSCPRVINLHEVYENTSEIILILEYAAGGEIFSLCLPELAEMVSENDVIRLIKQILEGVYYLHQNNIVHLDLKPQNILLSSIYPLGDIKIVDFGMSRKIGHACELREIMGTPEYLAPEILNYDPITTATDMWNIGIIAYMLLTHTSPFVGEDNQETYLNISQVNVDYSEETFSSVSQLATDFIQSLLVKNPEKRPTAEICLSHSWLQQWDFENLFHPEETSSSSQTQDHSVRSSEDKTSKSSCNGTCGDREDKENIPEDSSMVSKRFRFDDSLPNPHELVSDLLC
Chain of UniProt P20794 (whole entry, looked up): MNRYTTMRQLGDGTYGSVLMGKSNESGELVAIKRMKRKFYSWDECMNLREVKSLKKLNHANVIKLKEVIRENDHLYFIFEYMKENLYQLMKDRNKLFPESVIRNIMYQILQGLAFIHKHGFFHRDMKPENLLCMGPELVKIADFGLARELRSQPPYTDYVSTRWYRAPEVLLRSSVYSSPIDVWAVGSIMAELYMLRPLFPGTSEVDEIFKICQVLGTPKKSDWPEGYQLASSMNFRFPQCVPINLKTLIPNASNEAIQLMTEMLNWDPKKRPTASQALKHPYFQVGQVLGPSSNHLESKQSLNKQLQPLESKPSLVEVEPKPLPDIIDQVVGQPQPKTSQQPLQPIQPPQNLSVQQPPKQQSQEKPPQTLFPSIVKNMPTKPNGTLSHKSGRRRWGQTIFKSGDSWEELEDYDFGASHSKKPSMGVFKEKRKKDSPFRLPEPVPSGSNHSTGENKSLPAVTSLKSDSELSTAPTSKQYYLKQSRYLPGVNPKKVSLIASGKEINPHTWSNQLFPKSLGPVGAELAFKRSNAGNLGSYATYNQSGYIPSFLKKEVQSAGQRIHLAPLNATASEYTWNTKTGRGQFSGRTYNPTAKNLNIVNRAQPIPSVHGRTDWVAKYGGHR
Chain of UniProt Q8TDR2 (whole entry, looked up): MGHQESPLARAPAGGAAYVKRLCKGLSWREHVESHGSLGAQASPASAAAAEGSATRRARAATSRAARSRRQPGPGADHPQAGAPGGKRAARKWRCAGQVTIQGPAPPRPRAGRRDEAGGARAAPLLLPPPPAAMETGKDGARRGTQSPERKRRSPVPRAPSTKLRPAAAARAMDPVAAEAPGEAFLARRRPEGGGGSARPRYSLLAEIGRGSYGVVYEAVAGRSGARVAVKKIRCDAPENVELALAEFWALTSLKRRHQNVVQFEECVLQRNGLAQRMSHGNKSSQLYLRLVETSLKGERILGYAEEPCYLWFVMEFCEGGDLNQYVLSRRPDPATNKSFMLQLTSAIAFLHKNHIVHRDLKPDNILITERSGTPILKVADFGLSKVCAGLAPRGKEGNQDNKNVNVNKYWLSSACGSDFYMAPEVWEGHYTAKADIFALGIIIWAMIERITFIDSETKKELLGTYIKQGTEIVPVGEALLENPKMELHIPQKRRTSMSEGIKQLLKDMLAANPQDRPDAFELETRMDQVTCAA

Sample 1
SMILES: C[C@H](c1ccc(F)cc1)N(Cc1cccc(C(=O)O)c1)C(=O)c1cnc2ccccc2c1
Method: competition with immobilised ligand
Concentration: 1 µM
target	observed	remaining binding
Serine/threonine-protein kinase 24 (STK24, Homo sapiens, UniProt Q9Y6E0)	cell-free assay	100%
LIM domain kinase 1 (LIMK1, Homo sapiens, UniProt P53667)	cell-free assay	100%
Mitogen-activated protein kinase kinase kinase kinase 1 (MAP4K1, Homo sapiens, UniProt Q92918)	cell-free assay	100%
Serine/threonine-protein kinase MAK (MAK, Homo sapiens, UniProt P20794)	binding	100%
Casein kinase I isoform gamma-1 (CSNK1G1, Homo sapiens, UniProt Q9HCP0)	cell-free assay	91%
Calcium/calmodulin-dependent protein kinase type 1B (PNCK, Homo sapiens, UniProt Q6P2M8)	cell-free assay	100%
Tyrosine-protein kinase Tec (TEC, Homo sapiens, UniProt P42680)	binding	80%
Tyrosine-protein kinase Mer (MERTK, Homo sapiens, UniProt Q12866)	cell-free assay	95%
Receptor-type tyrosine-protein kinase FLT3 (FLT3, Homo sapiens, UniProt P36888, N841I)	cell-free assay	62%
Mitotic checkpoint serine/threonine-protein kinase BUB1 (BUB1, Homo sapiens, UniProt O43683)	cell-free assay	89%
Serine/threonine-protein kinase 17B (STK17B, Homo sapiens, UniProt O94768)	cell-free assay	80%
Serine/threonine-protein kinase 35 (STK35, Homo sapiens, UniProt Q8TDR2)	cell-free assay	93%
Serine/threonine-protein kinase PAK 5 (PAK5, Homo sapiens, UniProt Q9P286)	cell-free assay	93%
Bone morphogenetic protein receptor type-1A (BMPR1A, Homo sapiens, UniProt P36894)	binding	100%
Leucine-rich repeat serine/threonine-protein kinase 2 (LRRK2, Homo sapiens, UniProt Q5S007, G2019S)	cell-free assay	100%
Tyrosine-protein kinase JAK1, JH2 (JAK1, Homo sapiens, UniProt P23458)	cell-free assay	100%
Phosphatidylinositol 4-phosphate 5-kinase type-1 alpha (PIP5K1A, Homo sapiens, UniProt Q99755)	cell-free assay	100%
Ephrin type-B receptor 6 (EPHB6, Homo sapiens, UniProt O15197)	cell-free assay	88%

Sample 2
Target: NUAK family SNF1-like kinase 1 (NUAK1, Homo sapiens, UniProt O60285)
Observed: enzyme activity
Mode: inhibitor
Concentration: 0.5 µM
Baseline: control
Construct (O60285 1-661): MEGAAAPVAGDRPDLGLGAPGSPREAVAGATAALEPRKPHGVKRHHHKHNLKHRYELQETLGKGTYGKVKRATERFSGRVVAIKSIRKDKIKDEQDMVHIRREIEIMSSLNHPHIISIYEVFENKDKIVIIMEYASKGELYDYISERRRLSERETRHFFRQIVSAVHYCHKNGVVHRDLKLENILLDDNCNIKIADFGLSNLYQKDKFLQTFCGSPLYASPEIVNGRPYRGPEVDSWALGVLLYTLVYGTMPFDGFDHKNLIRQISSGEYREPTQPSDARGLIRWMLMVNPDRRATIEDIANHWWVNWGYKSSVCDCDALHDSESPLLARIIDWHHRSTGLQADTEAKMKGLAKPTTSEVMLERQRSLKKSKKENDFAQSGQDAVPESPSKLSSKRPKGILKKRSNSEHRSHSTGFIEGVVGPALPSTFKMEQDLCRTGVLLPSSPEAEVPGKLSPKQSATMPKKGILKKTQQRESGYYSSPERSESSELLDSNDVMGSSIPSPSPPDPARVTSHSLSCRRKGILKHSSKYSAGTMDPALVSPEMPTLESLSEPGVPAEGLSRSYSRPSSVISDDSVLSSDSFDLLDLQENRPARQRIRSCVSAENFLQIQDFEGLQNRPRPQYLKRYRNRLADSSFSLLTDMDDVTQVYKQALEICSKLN
Structure (SMILES)	remaining activity
CC(=O)O/N=C1/C(c2c(O)[nH]c3cc(Br)ccc23)=Nc2ccccc21	49.4%
O=C1NC(=O)/C(=C/c2ccc3nccnc3c2)S1	92.8%
Cn1cnc2cc3c(Nc4cccc(Br)c4)ncnc3cc21	90.5%
O=c1cc(N2CCOCC2)oc2c1ccc1ccccc12	90.1%
COc1cc2ncc(-c3ccccc3)nc2cc1OC	85.6%
CN(C)CCCn1cc(C2=C(c3c[nH]c4ccccc34)C(=O)NC2=O)c2ccccc21	25.9%
Nc1[nH]nc2nnc(-c3c(-c4ccccc4)nn4ccccc34)cc12	92.5%
C[S+]([O-])c1ccc(-c2nc(-c3ccncc3)c(-c3ccc(F)cc3)[nH]2)cc1 (stereo not shown)	94.4%
CCOc1cc2ncnc(Nc3cccc(Br)c3)c2cc1OCC	94%

Sample 3
Species: human
Matrix: microsomes or S9
Concentration: 2 µM
Time: 0.5 h
Structure (SMILES)	remaining compound
Cc1cc(C)n(C2CCN(C(=O)c3sc4ncn(C)c(=O)c4c3C)C2)n1 (stereo not shown)	24.9%
Clc1ccc(Oc2nc3ccccc3o2)c2ncccc12	20.4%
Cc1ccn(-c2ccc(NS(=O)(=O)c3ccc4c(c3)Cc3ccccc3-4)cc2)n1	70.6%
CC(NC(C)c1nc(N)nc(N(C)C)n1)c1ccccc1 (stereo not shown)	55.4%
Cc1csc(C2=C(N)N(C(C)CCc3ccco3)CC2=O)n1 (stereo not shown)	24.3%
OCCOCCN1CCN(c2nc(Cl)cc(Nc3ccc4[nH]ncc4c3)n2)CC1	75%
CC1(C)Cc2c(c(N3CCOCC3)nc3sc4c(=O)n(CCc5ccccc5)cnc4c23)CO1	4.98%

Sample 4
Cell line: HaCaT
Concentration: 100 µM
Time: 36 h
Compound	viability
CCn1cc(C(=O)O)c(=O)c2ccc(C)nc21	75.5%
CN1CCC(=C2c3ccccc3CCn3c(C=O)cnc32)CC1	84.5%
O=C1CN(/N=C/c2ccc([N+](=O)[O-])o2)C(=O)N1	27.3%
COC(=O)C1=C(C)NC(C)=C(C(=O)OCCN(C)Cc2ccccc2)C1c1cccc([N+](=O)[O-])c1 (stereo not shown)	7.92%
CN(C(=O)CN(CCO)CC(=O)N(C)C(C)(C)Cc1ccccc1)C(C)(C)Cc1ccccc1	5.39%
c1ccc(CN(CC2=NCCN2)c2ccccc2)cc1	73.8%

Excerpt of the above (sample 1):
target	observed	remaining binding
Serine/threonine-protein kinase PAK 5 (PAK5, Homo sapiens, UniProt Q9P286)	cell-free assay	93%
Bone morphogenetic protein receptor type-1A (BMPR1A, Homo sapiens, UniProt P36894)	binding	100%
